Assay results collected from several papers.
Every numbered part comes from another study and shows a few of its results, in no order. Changes are numbered by the printed parent chain.

Sample 1
Target: RING finger protein unkempt homolog, zinc fingers 1-6, GST-SBP tag (UNK, Homo sapiens, UniProt Q9C0B0, residues 30-357)
Chain of UniProt Q9C0B0 (30-357, looked up): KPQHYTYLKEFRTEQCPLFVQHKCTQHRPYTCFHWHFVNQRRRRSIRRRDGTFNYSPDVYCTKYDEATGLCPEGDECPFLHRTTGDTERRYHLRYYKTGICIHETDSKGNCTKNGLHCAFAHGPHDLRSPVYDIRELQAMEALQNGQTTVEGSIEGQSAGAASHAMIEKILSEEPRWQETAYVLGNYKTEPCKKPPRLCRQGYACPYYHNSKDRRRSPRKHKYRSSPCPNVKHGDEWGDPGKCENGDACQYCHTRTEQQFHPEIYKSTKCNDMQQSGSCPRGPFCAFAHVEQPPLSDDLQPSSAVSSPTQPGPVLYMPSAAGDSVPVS
Method: RNA Bind-n-Seq
Form: RNA
Medium: in vitro
Tested at: not given
Setting: RNA with constant flanks, human-mouse chimeric sites, ends assumed
Baseline: input RNA pool
Direction: higher = stronger binding
All sequences stand within: GGGAGUUCUACAGUCCGACGAUC … CAACAGAGGAUUGAGCAUCA
For `AAAGUGAUGACUAUGUUUGUCCAACGACAGGUAUUUUCGGAGAGCAAAGAUGAGAUUGCGUUAGUCCUCUAUGGCACAGAUGGCACUGACAAUCCCCUUUCUGGUGGGGACCAGUAUCAG`, the bound/input enrichment was 0.353 ratio.
With `UUUCUACUGCAGCAGACGAUGCUAAGAAUUAAGGAUCCUAAGAAGUCCCUGGAUUUUUAUACGAGGGUUCUUGGACUGACCCUCCUGCAGAAGCUUGACUUCCCUGCUAUGAAGUUUUCG` the bound/input enrichment was 0.287 ratio.
With `CACGUGUCUGCAGUGCUUGAUGUGGACUACUCUCCCACUGGGAAGGAAUUUGUGUCUGCCAGCUUUGAUAAGUCUAUUAGAAUCUUUCCUGUGGACAAGAGCCGAAGCAGGGAAGUGUAU` the bound/input enrichment was 0.538 ratio.
With `CUGGCCUGGCCCUCCCCUCUAGUGACCUUUCGUAUAGUCACUGCUUCUGCAUCAGAUACUUUCAGCUGCAACUCCCUACUGGGUGGGGCACCCAUUUGAGGCAGGGUGUUUUGGUACCCU` the bound/input enrichment was 0.448 ratio.
`AAAGAGAAACUAAAGCAACUAAUAGAGAAGAGGAUUGGCAAAGAGAAUUUCAUAGAGGAAACUAGGAUUAUUAGCAAACAUGAGUUAUAUUCCAGAGCGUCUCAGAAACCCCAGCCAAAC` gave a bound/input enrichment of 5.38 ratio.
The bound/input enrichment of `GAUCAUGAACCACCAUCAGAAAUGAAGAUGAGAUUACCCAGACGAGCCAAAACAGCUAGCACUAGAAAAAGUAAACUUAACCUUGCACCAAUUUCUCAUGAAGAUACAAGUUAAGAGAGC` is reported as 1.61 ratio.
For `UAAGUCCAUUUGUAAGCAUUUAUCCCAAAAGUUUUAAAUUCUGGACCAAUAGUGUUUGUUUCCUGAUUAUUGUAUCCAAUACUUUGCCUAGUAUGUAACUCACUCUUACUGAUAAUAAAA`, the bound/input enrichment was 1.91 ratio.
With `AAAGAACCUCUCUCUGAUGAAGAUGAGGAAGACAAUGAUGAUGUUGAACCCAUUUCUGAAUUUCGAUUUGUGCCCAGUGAUAAAUCAGCAUUGGAGGCGAUGUUCACAGCAAUGUGUGAG` the bound/input enrichment was 0.268 ratio.

Sample 2
Target: CCNA2, cyclin fold, Cln2 fusion (human)
Method: yeast growth competition, sequencing
Medium: yeast
Setting: strong parent motif
Baseline: not given
Direction: higher = stronger binding
Starting sequence: GMNC docking peptide (human); KNAKRNLSSEFAN; partner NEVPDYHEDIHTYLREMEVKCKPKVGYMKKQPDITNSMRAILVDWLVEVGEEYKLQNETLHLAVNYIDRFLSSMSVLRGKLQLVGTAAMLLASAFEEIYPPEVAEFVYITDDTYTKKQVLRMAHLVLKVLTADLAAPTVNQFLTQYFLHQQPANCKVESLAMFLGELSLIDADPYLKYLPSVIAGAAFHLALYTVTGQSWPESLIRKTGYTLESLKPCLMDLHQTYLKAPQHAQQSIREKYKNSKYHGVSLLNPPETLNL
`KNAKRNESSEFAN [L7E]` — result for “normalised enrichment score”: 0.156.
For `KNAKRNNSSEFAN [L7N]`, “normalised enrichment score” read 0.63.
`KNAKINLSSEFAN [R5I]` — result for “normalised enrichment score”: 0.344.
For `KNAKRNLSSEFSN [A12S]`, “normalised enrichment score” read 5.11.
`KNAKRNLESEFAN [S8E]`: “normalised enrichment score” 5.38.
For `KNACRNLSSEFAN [K4C]`, “normalised enrichment score” read 4.85.
`KNAKRNLSVEFAN [S9V]` — result for “normalised enrichment score”: 5.33.
`KNAKRNLSSCFAN [E10C]` — result for “normalised enrichment score”: 2.84.

Sample 3
Target: RNA binding protein fox-1 homolog 2, RRM domain, GST-SBP tag (RBFOX2, Homo sapiens, UniProt O43251-10, residues 100-194)
Method: RNA Bind-n-Seq
Form: RNA
Medium: in vitro
Tested at: 365 nM
Setting: natural RNA segment, single round, ends assumed
Baseline: no-protein control
Direction: higher = stronger binding
All sequences stand within: GGGAGUUCUACAGUCCGACGAUC … UGGAAUUCUCGGGUGCCAA
Construct (chain): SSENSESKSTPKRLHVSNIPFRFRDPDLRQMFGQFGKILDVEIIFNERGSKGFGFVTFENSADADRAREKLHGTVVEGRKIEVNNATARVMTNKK
`CCAGGCCUUAUUGAGACCAGACCCCUAAGCCUCCAACCCCCCAGCAUGUCCCCUAAUGGGGACUGGCUCUCGCUUCACCCCCAUGGGGUUCCUCUAAUAAGGACCAGCCU` — result for “RBNS enrichment (R)”: 2.56.
For `UUCUUGUACAUUUGACAACACAUUGAGGAAAACCCUAUAAACAUAAUCAAGAGGGGACAUUUUUCAUUAAGAGUUCAGUAAGACUUCUCCCACAUUAUUUACUAGAAAAU`, “RBNS enrichment (R)” read 0.699.
Under “RBNS enrichment (R)”, `CAAGUGACAGGAAAGAUUCCCUGGUCUGCAUCUAAACAUUAGUCAACAGAAGGAAAAGGCUCUUUUCCUUGGAGAUUUUCAAGUUGAAAAAGUACAGCUGCUUGGAUGGA` is recorded as 0.289.
For `GAAUAUCAGUCAUGAUGGCAAUUUCUGUAUAAAAGAGCCUUAAAUGGAACAUUGUUUUGAGAUCAAACUCCCCACCCUCACAAAAAUGGCCACGUUGCAAUAAAAAUUGU`, “RBNS enrichment (R)” read 0.764.
For `AACAAAAACACUGCGCAUUUCAAUCAUCUGCACCUUUCCCUCGUUUUGCAUUAGUACUGAAAUCUGUACCCUACAGACCUUAUAAUAAUUUGCAAAGUGACUCUGACUAA`, “RBNS enrichment (R)” read 0.429.
`AAGUGUUUGCUGCGUGGCAGAUUUCCUGUUCUUGUUCGCAGUUUGCCGACUGAAGAGUGUGGGAUUUCCGAGGCCCAGGUGAGCACGUCCAUCUCAGGAGGCGUGGAGGG` — result for “RBNS enrichment (R)”: 0.959.
Under “RBNS enrichment (R)”, `CGGGGCCUUCAAUUUACGUUCUUUACACUACGGGGACUGGGGUCGUCUUUGCCCACGUCCCGACAACUUGUUCCCUGACCCCCUCAGGGAUGGCCCCAAACUGUCCCUGC` is recorded as 0.37.
`UUGAAACUUGUGUAUCAUAUGUGAUUUUGAAAUGAACACCUUGAAUAGCACUAAUUUUUAUUUGUGGUAUUUUUCUAUAACAAAACAAGUAGCUCUAGGAAAAGAGGUUU` — result for “RBNS enrichment (R)”: 0.496.

Single results of other studies
For `PhoQ, residues 284 288 289 292 302 303 SSTMSV`, the fold induction was 7.88 (PhoP, residues 12 14 15 18 19 SEGLL (Escherichia coli, UniProt P23836); Sort-seq, measured: YFP reporter; E. coli; PhoQ-PhoP variant library, with: 10 µM Mg2+; baseline: high Mg2+ state, higher = stronger signaling).

Repeated from above (sample 1):
With `UUUCUACUGCAGCAGACGAUGCUAAGAAUUAAGGAUCCUAAGAAGUCCCUGGAUUUUUAUACGAGGGUUCUUGGACUGACCCUCCUGCAGAAGCUUGACUUCCCUGCUAUGAAGUUUUCG` the bound/input enrichment was 0.287 ratio.
With `CACGUGUCUGCAGUGCUUGAUGUGGACUACUCUCCCACUGGGAAGGAAUUUGUGUCUGCCAGCUUUGAUAAGUCUAUUAGAAUCUUUCCUGUGGACAAGAGCCGAAGCAGGGAAGUGUAU` the bound/input enrichment was 0.538 ratio.
With `CUGGCCUGGCCCUCCCCUCUAGUGACCUUUCGUAUAGUCACUGCUUCUGCAUCAGAUACUUUCAGCUGCAACUCCCUACUGGGUGGGGCACCCAUUUGAGGCAGGGUGUUUUGGUACCCU` the bound/input enrichment was 0.448 ratio.
`AAAGAGAAACUAAAGCAACUAAUAGAGAAGAGGAUUGGCAAAGAGAAUUUCAUAGAGGAAACUAGGAUUAUUAGCAAACAUGAGUUAUAUUCCAGAGCGUCUCAGAAACCCCAGCCAAAC` gave a bound/input enrichment of 5.38 ratio.
